Experimental data of several laboratories.
Each numbered part is a random draw from the data of one study; scales do not carry over between parts.
Chain of UniProt Q8IW41 (whole entry, looked up): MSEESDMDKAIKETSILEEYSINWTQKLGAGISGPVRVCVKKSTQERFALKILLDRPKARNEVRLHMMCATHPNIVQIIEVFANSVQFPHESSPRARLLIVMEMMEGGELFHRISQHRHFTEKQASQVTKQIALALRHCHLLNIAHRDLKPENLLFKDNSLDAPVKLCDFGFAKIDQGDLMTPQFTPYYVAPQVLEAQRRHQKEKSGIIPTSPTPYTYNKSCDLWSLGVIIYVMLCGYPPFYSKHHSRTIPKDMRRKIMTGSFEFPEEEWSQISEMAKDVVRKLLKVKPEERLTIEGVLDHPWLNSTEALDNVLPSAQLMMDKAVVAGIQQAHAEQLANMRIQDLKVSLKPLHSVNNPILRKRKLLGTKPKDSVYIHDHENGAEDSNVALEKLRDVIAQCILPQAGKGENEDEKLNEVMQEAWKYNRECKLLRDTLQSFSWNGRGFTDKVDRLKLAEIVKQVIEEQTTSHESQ
Chain of UniProt O94921 (whole entry, looked up): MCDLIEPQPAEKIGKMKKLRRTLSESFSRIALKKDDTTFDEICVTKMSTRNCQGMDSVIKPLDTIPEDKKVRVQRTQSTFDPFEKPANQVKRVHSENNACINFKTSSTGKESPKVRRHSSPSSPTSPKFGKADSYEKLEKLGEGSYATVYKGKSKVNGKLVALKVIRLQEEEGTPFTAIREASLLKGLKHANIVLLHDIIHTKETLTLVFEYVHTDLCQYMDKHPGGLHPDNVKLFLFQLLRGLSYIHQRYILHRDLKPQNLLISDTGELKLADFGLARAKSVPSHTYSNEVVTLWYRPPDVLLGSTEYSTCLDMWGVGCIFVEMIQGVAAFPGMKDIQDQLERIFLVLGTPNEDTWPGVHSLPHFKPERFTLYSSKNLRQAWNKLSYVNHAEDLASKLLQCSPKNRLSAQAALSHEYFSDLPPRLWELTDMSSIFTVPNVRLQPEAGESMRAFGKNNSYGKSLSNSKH
Chain of UniProt P09619 (whole entry, looked up): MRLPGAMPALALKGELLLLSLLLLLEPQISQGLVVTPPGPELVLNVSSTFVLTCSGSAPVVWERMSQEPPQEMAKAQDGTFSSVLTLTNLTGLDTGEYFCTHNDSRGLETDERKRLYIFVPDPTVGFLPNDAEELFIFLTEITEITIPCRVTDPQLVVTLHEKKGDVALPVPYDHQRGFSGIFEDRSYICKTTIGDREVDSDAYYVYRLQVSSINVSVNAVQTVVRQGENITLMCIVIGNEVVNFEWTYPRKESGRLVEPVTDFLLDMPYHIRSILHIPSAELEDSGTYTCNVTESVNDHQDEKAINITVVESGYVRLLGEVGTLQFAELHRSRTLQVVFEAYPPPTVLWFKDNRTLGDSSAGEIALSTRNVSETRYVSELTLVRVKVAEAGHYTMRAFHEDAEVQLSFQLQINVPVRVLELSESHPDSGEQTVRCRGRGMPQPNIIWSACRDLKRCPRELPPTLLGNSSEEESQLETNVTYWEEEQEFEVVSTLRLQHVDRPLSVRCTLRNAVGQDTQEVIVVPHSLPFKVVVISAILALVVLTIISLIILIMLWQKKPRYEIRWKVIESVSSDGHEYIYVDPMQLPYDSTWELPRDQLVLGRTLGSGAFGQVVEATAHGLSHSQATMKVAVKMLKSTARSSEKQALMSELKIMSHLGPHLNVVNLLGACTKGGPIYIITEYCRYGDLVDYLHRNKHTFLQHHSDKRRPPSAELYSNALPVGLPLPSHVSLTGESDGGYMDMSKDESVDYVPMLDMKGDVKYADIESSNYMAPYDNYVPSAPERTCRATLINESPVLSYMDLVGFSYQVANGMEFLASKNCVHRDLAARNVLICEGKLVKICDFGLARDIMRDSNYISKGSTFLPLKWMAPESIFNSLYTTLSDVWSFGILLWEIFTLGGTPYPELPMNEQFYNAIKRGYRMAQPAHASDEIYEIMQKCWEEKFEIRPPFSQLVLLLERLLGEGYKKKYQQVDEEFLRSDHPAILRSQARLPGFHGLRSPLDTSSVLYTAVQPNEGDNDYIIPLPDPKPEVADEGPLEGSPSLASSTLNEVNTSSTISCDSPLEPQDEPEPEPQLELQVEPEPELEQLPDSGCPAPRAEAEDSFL
Chain of UniProt P19525 (whole entry, looked up): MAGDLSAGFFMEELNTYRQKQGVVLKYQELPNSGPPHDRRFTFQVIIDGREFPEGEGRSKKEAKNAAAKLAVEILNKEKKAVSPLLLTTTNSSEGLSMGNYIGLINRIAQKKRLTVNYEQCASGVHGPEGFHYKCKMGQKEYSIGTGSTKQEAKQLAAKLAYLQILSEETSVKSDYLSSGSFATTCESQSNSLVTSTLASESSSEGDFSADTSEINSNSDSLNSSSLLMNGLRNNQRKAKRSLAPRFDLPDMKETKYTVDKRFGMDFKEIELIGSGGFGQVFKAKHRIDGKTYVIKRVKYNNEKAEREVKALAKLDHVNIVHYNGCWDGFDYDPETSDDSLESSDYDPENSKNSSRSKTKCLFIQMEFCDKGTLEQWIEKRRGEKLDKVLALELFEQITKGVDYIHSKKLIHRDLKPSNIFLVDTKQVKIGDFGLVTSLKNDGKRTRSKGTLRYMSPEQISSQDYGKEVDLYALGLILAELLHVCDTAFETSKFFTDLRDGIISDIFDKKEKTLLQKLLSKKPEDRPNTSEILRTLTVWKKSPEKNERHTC

Set 1 — technique: protein-binding microarray; form: double-stranded DNA, one strand shown; medium: in vitro; tested at: not given; reading: higher = stronger binding
Target: Transcriptional repressor CTCF (CTCF, Homo sapiens, UniProt P49711, residues 1-727, full length assumed)
Notes: k-mer, scored over probes, only values ≥0.25
Residues (chain): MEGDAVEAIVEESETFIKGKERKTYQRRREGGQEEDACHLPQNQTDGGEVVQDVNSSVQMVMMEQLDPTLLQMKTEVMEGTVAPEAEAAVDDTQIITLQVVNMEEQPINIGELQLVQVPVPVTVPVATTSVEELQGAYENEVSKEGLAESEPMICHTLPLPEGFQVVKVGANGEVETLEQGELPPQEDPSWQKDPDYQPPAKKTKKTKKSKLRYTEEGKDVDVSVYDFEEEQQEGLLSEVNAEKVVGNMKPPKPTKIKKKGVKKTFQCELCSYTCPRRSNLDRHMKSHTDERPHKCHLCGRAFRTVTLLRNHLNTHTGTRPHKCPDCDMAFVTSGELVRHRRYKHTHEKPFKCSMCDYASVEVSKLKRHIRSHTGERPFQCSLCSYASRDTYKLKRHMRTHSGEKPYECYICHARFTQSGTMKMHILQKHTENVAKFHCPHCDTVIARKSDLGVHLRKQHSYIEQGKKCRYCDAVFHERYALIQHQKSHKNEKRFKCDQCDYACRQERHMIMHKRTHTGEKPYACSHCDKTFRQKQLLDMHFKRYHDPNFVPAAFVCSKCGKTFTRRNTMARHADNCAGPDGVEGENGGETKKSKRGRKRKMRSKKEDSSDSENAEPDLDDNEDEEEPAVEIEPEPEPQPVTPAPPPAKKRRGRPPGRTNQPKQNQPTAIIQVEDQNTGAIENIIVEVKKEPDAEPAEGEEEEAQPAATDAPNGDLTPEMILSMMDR
Strand | E-score
AACAGCGC | 0.346
GATTACGC | 0.287
TGATAACA | 0.282
AGTATATA | 0.339
TAAATTTA | 0.293
ATACGCAT | 0.292
AATAGTAA | 0.289
ATTTTACG | 0.342

Set 2 — technique: protein-binding microarray; form: double-stranded DNA, one strand shown; medium: in vitro; tested at: 940 nM top; notes: 60-bp whole probe; with: salmon DNA 0.4 mg/ml; reference: random background probes; reading: higher = stronger binding; shared flanks, not repeated: GCCTAGCAC … GTCTTGATTCGCTTGACGCTGCTG
Target: Interferon regulatory factor 5, full length, phosphomimetic (IRF5, Homo sapiens, UniProt Q13568-2, residues 1-514, S451D/S453D/S456D/S462D)
Strand | fitted relative affinity
TTAGATTTCAGTTTCGGTTAGTGCTAG | 9.74 z-score
TTAGATATGGGGACTGGATTAGTGCTA | -0.0925 z-score
GACGGTATCGGTATCCGGACGTGCTAG | 10.1 z-score
GACGGTTTCCTTTCCCTGGCGTGCTAG | 2.59 z-score
CCAGATTTCCCCACCATCTAGTGCTAG | 0.803 z-score
GACGATTTCCTTTTCCTGACGTGCTAG | 0.897 z-score
ACTAGTTTCTTTTCTTTTCTGTGCTAG | 4.65 z-score
GATGATCTCAGACTGGAGACGTGCTAG | -0.43 z-score

Set 3 — read-out: cell-free assay; technique: competition with immobilised ligand; tested at: 1 µM
SMILES: CN(C)C(=O)Cn1cc(-c2nc([C@@](C)(c3ccc(-c4cnc(N)nc4)cc3)C3CC3)no2)cn1
target | remaining binding [%]
EIF2AK2 (Homo sapiens, UniProt P19525) | 100
PDGFRB (Homo sapiens, UniProt P09619) | 82
MAPKAPK5 (Homo sapiens, UniProt Q8IW41) | 94
CDK14 (Homo sapiens, UniProt O94921) | 99

Further values, each from its own experiment
SMILES | medium | measurement | value
CCOC(=O)[C@@H]1CSCC(=O)N[C@H](CC)C(=O)N(C)[C@@H](C)C(=O)N[C@H](CC(C)C)C(=O)N2CCC[C@H]2C(=O)N(CC)CC(=O)N[C@@H](CC(C)C)C(=O)N(C)[C@@H](C)C(=O)N[C@@H](CC(C)C)C(=O)N1C | hydrocarbon/water | logD | -0.348
